# Results gathered from unrelated publications.
# Lines come from different studies, so protocols differ. ± marks the error that the study gave.
SMILES,assay,system,setting,AUC(0-t) [µg·h/mL]
CC(=O)c1c(C)c2cnc(Nc3ccc(N4CCNCC4)cn3)nc2n(C2CCCC2)c1=O,,human,"oral, 95 mg/m^2 single dose, day 1",2.38
C=CC(=O)N1CCC([C@@H]2CCNc3c(C(N)=O)c(-c4ccc(Oc5ccccc5)cc4)nn32)CC1,,human,"oral, 480 mg single dose, mean",2.57
Cc1ccc(NC(=O)c2ccc(CN3CCN(C)CC3)cc2)cc1Nc1nccc(-c2cncc(-c3oncc3C)c2)n1,,"older healthy human adults, plasma","oral, 25.0 mg single dose, fed, mean",22.7
CN(C)Cc1c(C(=O)NCCOc2ccc(C(=O)NO)cc2)oc2ccccc12,,"human, plasma","oral, 40 mg single dose",0.159 ± 0.0121
COc1cc2c(cc1OC)CN(CCc1ccc(NC(=O)c3cc(OC)c(OC)cc3NC(=O)c3cnc4ccccc4c3)cc1)CC2,LC-MS,"human, venous plasma","intravenous infusion, 2 mg/kg, 4 h",2.95
O=C(NCCN1CCCC1)c1cc(-c2ccc(CN3CCOCC3)cc2)nc2ccc(F)cc12,LC-MS/MS,"human, whole blood","oral, 400 mg, single dose, geometric mean",9.29
O=C(O)CC[C@H]1CC[C@@](c2cc(F)ccc2F)(S(=O)(=O)c2ccc(Cl)cc2)CC1,,"human patients, plasma","oral, 1400 mg/m2/week",1320 to 2400
O=C(Nc1c(Cl)cncc1Cl)c1ccc(OC(F)F)c(OCC2CC2)c1,,"human adolescents, 12-17 years, plasma","topical, 0.3% cream once daily, day 15",0.0251
Cc1[nH]c(/C=C2\C(=O)Nc3ccccc32)c(C)c1CCC(=O)O,,human patients,"oral, 400 mg/m^2 twice daily, after meal, dose 55",32 ± 11.3
C=CC(=O)Nc1cc(Nc2ncc(C(=O)OC(C)C)c(-c3cn(C)c4ccccc34)n2)c(OC)cc1N(C)CCN(C)C,,"human, fasted","oral, 160 mg single dose, geometric mean",1.01
CC(C)NC[C@@H](C(=O)N1CCN(c2ncnc3c2[C@H](C)C[C@H]3O)CC1)c1ccc(Cl)cc1,,"human, Severe hepatic function, plasma","oral, 100 mg single dose, NCI classification, geometric mean",0.859
CC[C@H](C)[C@@H]1NC(=O)[C@H](CCCNC(=N)N)NC(=O)[C@H](CC(=O)O)NC(=O)[C@H](CC(C)C)NC(=O)[C@H](CCCCN)NC(=O)[C@H](CC(C)C)NC(=O)CNC(=O)[C@H](Cc2ccccc2)NC(=O)[C@@H](NC(=O)CNC(=O)[C@H](CCCCN)NC(=O)[C@H](CO)NC(=O)[C@H](CC(C)C)NC(=O)CNC(=O)[C@H](CCCCN)NC(=O)[C@H](CCCCN)NC(=O)[C@H](CC(N)=O)NC(=O)[C@H](C)NC(=O)CNC(=O)[C@H](CCCCN)NC(=O)[C@H](Cc2ccc(O)cc2)NC(=O)[C@H](CCCCN)NC(=O)[C@H](CCCNC(=N)N)NC(=O)[C@H](C)NC(=O)[C@H](CC(N)=O)NC(=O)[C@@H]2CCCN2C(=O)[C@H](Cc2c[nH]cn2)NC(=O)[C@H](CCC(=O)O)NC(=O)[C@H](CCC(N)=O)NC(=O)CNC(=O)[C@@H]2CCCN2)CSSC[C@@H](C(=O)O)NC(=O)CNC(=O)[C@H](CC(C)C)NC(=O)CNC(=O)[C@H](CO)NC(=O)[C@H](CCSC)NC(=O)[C@H](CO)NC(=O)CNC1=O,ELISA,"human, plasma","subcutaneous, 2.5 µg/kg single dose, day 1",2.28e-05
CN(Cc1cnc2nc(N)nc(N)c2n1)c1ccc(C(=O)N[C@@H](CCC(=O)O)C(=O)O)cc1,,"human, plasma","oral, 10 mg, added: apremilast 30 mg twice daily",1.3
COC(=O)[C@H](c1ccccc1Cl)N1CCC(S)/C(=C\C(=O)O)C1 (stereo partly shown),,"human patients, CYP3A4 wt/wt, plasma","oral, 75 mg clopidogrel daily, day 7, median",0.00569
C=CC[C@@H]1/C=C(\C)C[C@H](C)C[C@H](OC)[C@H]2O[C@@](O)(C(=O)C(=O)N3CCCC[C@H]3C(=O)O[C@H](/C(C)=C/[C@@H]3CC[C@@H](O)[C@H](OC)C3)[C@H](C)[C@@H](O)CC1=O)[C@H](C)C[C@@H]2OC,,"healthy human, whole blood","oral, 5 mg single dose, arithmetic mean, added: isavuconazole 200 mg daily",0.68
COc1cccc(-c2ccc(NC(=O)C3=C(C(=O)O)CCC3)c(F)c2)c1,,"human, male, plasma","oral, 50 mg once daily, day 13, geometric mean, not pre-dosed",310
C[C@@H](Oc1cc(-c2cnn(C3CCNCC3)c2)cnc1N)c1c(Cl)ccc(F)c1Cl,,"healthy human, plasma","oral, 250 mg single fasted, arithmetic mean",2.49 ± 1.07
CN[C@@H]1COc2c(S(=O)(=O)NC(=O)Nc3c4c(cc5c3CCC5)CCC4)cnn2C1,,human,"oral, 600 mg, fasted, mean",172
O=C(O)CNC(=O)c1c(O)c2ccccc2n(OCC2CC2)c1=O,LC-MS/MS,"human, blood","oral, 200 mg multiple doses",39.4 ± 12.3
COc1cc2ncnc(Nc3ccc(F)c(Cl)c3)c2cc1OCCCN1CCOCC1,,"human, plasma","oral, 250 mg, added: vorinostat 200 mg",0.00452 ± 0.000779
CC(C)[C@@H](CS(=O)(=O)C(C)C)N1C(=O)[C@@](C)(CC(=O)O)C[C@H](c2cccc(Cl)c2)[C@H]1c1ccc(Cl)cc1,,"human, plasma","oral, 60 mg, old tablet, fasted, arithmetic mean",2.98
CNC(=O)c1c(C)oc2cc(Oc3ncnc4cc(OC)c(OC)cc34)ccc12,,"human, plasma","oral, 5 mg, fasted, added: rabeprazole 40 mg",5.28
CNc1nc(Nc2ccc(-n3cnc(C)n3)c(OC)c2)nc2c1CC[C@H]2c1ccc(F)cc1,,"healthy humans, both sexes, plasma","oral, 900 mg single dose",21.9
CCCS(=O)(=O)N[C@H]1C[C@@H](N(C)c2ncnc3[nH]ccc23)C1,,"humans, moderate hepatic impairment","oral, 200 mg single",8.55
CCCCC1(CCCC)CN(c2ccccc2)c2cc(SC)c(OCC(=O)N[C@@H](C(=O)NCC(=O)O)c3ccccc3)cc2S(=O)(=O)C1,,"human, plasma","oral, 2.5 mg, no breakfast",0.00166
O=S(=O)(c1cccc2cnccc12)N1CCCNCC1,,"human, plasma","oral, 30 mg",0.00029
C=C(C)[C@@H]1CC[C@]2(NCCN3CCS(=O)(=O)CC3)CC[C@]3(C)[C@H](CC[C@@H]4[C@@]5(C)CC=C(C6=CC[C@@](CF)(C(=O)O)CC6)C(C)(C)[C@@H]5CC[C@]43C)[C@@H]12,,"healthy human volunteers, plasma","oral, 200 mg, tablet, fasted state, mean",13.5
CCS(=O)(=O)N1CC(CC#N)(n2cc(-c3ncnc4[nH]ccc34)cn2)C1,,"healthy Chinese human subjects, plasma","oral, 4 mg, single dose, mean",0.269
CCOc1ccc(Cc2cc([C@@H]3S[C@H](CO)[C@@H](O)[C@H](O)[C@H]3O)c(OC)cc2C)cc1,,human,"oral, 5 mg, 0 to 48 h, fasted",1.86 ± 0.267
Cc1cc(-c2nnc(N)nc2-c2ccc(F)cc2)cc(Cl)n1,,"human patients, plasma","oral, 100 mg nanosuspension, single dose, arithmetic mean",4.29
NCCCS(=O)(=O)O,,"human, plasma","oral, 100 mg loose-filled capsule, single dose",3.27 ± 1.13

# Excerpt of the above:
SMILES,assay,system,setting,AUC(0-t) [µg·h/mL]
O=S(=O)(c1cccc2cnccc12)N1CCCNCC1,,"human, plasma","oral, 30 mg",0.00029
CCCCC1(CCCC)CN(c2ccccc2)c2cc(SC)c(OCC(=O)N[C@@H](C(=O)NCC(=O)O)c3ccccc3)cc2S(=O)(=O)C1,,"human, plasma","oral, 2.5 mg, no breakfast",0.00166
CCS(=O)(=O)N1CC(CC#N)(n2cc(-c3ncnc4[nH]ccc34)cn2)C1,,"healthy Chinese human subjects, plasma","oral, 4 mg, single dose, mean",0.269
COc1cc2c(cc1OC)CN(CCc1ccc(NC(=O)c3cc(OC)c(OC)cc3NC(=O)c3cnc4ccccc4c3)cc1)CC2,LC-MS,"human, venous plasma","intravenous infusion, 2 mg/kg, 4 h",2.95
CC(C)[C@@H](CS(=O)(=O)C(C)C)N1C(=O)[C@@](C)(CC(=O)O)C[C@H](c2cccc(Cl)c2)[C@H]1c1ccc(Cl)cc1,,"human, plasma","oral, 60 mg, old tablet, fasted, arithmetic mean",2.98
